Measured values of several laboratories.
Lines come from different studies, so protocols differ. Numbers after ± are the reported error. Values after ≈ are worked out from the molar mass of the structure shown.
Organism: Staphylococcus epidermidis

CC1COC2=C1C(=O)C(=O)c1c2ccc2c1C(OC(=O)CNC(=O)CN)CCC2(C)C (mixture of isomers)  inhibition zone diameter (10 µmol/mL, 48 h, 10 µL on 6 mm disc): 19.8 ± 1 mm
O=c1n(CCNCCOS(=O)(=O)c2ccccc2)c(=O)n(S(=O)(=O)c2ccccc2)c(=O)n1S(=O)(=O)c1ccccc1  MLC (broth microdilution): 4 ± 1 µg/mL
CC1COC2=C1C(=O)C(=O)c1c2ccc2c1C(OC(=O)CNC(=O)C(N)CO)CCC2(C)C (mixture of isomers)  inhibition zone diameter (10 µmol/mL, 48 h, 10 µL on 6 mm disc): 22.7 ± 1.3 mm
CC[C@H](C)[C@H](NC(=O)[C@H](CCCCN)NC(=O)[C@H](CCCCN)NC(=O)[C@H](Cc1ccccc1)NC(=O)[C@H](Cc1ccccc1)NC(=O)[C@H](CCCCN)NC(=O)[C@H](CCCCN)NC(=O)[C@H](Cc1ccccc1)NC(=O)[C@H](CCCNC(=N)N)NC(=O)[C@@H](N)CCCCN)C(=O)N[C@@H](CCCCN)C(=O)N[C@@H](CCCCN)C(=O)N[C@@H](CO)C(=O)N[C@H](C(=O)N[C@@H](CCCCN)C(=O)N[C@@H](CCCCN)C(=O)N[C@@H](CCCNC(=N)N)C(=O)N[C@H](C(=O)N[C@@H](CCCCN)C(=O)N[C@@H](CCCCN)C(=O)N[C@@H](CC(C)C)C(=O)N[C@@H](Cc1ccccc1)C(=O)N[C@@H](CCCCN)C(=O)N[C@@H](CCCCN)C(=O)N1CCC[C@H]1C(=O)N[C@@H](CCCNC(=N)N)C(=O)N[C@H](C(=O)N[C@H](C(=O)N1CCC[C@H]1C(=O)N[C@H](C(=O)N[C@@H](CO)C(=O)N[C@H](C(=O)N1CCC[C@H]1C(=O)N[C@@H](Cc1ccccc1)C(=O)O)[C@@H](C)CC)[C@@H](C)CC)[C@@H](C)CC)C(C)C)C(C)C)C(C)C  MBC (clinical isolate; 20 h, 37 °C): 8 µg/mL (≈ 1.9 µM)
CC(C)[C@H](NC(=O)[C@H](CO)NC(=O)[C@@H](N)CC(=O)O)C(=O)N[C@H]1CSC(=O)[C@H](Cc2ccccc2)NC(=O)[C@H](Cc2ccc(O)cc2)NC(=O)[C@H](CO)NC(=O)[C@H](C)NC1=O  biofilm inhibition (safranin staining; RP62A; 10 µM, 24 h, 37 °C; reference: DMSO control): 51%
Oc1c(Br)cc(Br)c2nc3ccc(C(F)(F)F)cc3nc12  MBEC (Calgary biofilm device; MRSE 35984): 150 µM
C[C@@H]1NC(=O)[C@H](C)NC(=O)[C@@H](NC(=O)[C@@H]2CCCN2C(=O)[C@H](CC(N)=O)NC(=O)[C@H](Cc2ccc(O)cc2)NC(=O)[C@@H](N)Cc2cccc(CN)c2)CSC(=O)[C@H](Cc2cccc(F)c2)NC(=O)[C@H](Cc2ccc(O)cc2)NC1=O  biofilm dispersal (safranin staining; RP62A; 10 µM, 37 °C; reference: DMSO control): 30.8%
O=CCNCCOn1c(=O)n(OCCNCCO)c(=O)n(OCCNCCOn2c(=O)n(OCCNCCO)c(=O)n(OCCNCCO)c2=O)c1=O  MLC (broth microdilution): 4 ± 1 µg/mL (≈ 5.2 µM)
Oc1c(Br)cc(Br)c2nc3cc(F)c(F)cc3nc12  MBEC (Calgary biofilm device; MRSE 35984): 25 µM
C[C@@H]1NC(=O)[C@H](C)NC(=O)[C@@H](NC(=O)[C@@H]2CCCN2C(=O)[C@H](CC(N)=O)NC(=O)[C@H](Cc2ccc(O)cc2)NC(=O)[C@@H](N)CCCCN)CSC(=O)[C@H](Cc2ccccc2)NC(=O)[C@H](Cc2ccc(O)cc2)NC1=O  biofilm inhibition (safranin staining; RP62A; 10 µM, 24 h, 37 °C; reference: DMSO control): 18.2%

Some of these lines once more:
CC[C@H](C)[C@H](NC(=O)[C@H](CCCCN)NC(=O)[C@H](CCCCN)NC(=O)[C@H](Cc1ccccc1)NC(=O)[C@H](Cc1ccccc1)NC(=O)[C@H](CCCCN)NC(=O)[C@H](CCCCN)NC(=O)[C@H](Cc1ccccc1)NC(=O)[C@H](CCCNC(=N)N)NC(=O)[C@@H](N)CCCCN)C(=O)N[C@@H](CCCCN)C(=O)N[C@@H](CCCCN)C(=O)N[C@@H](CO)C(=O)N[C@H](C(=O)N[C@@H](CCCCN)C(=O)N[C@@H](CCCCN)C(=O)N[C@@H](CCCNC(=N)N)C(=O)N[C@H](C(=O)N[C@@H](CCCCN)C(=O)N[C@@H](CCCCN)C(=O)N[C@@H](CC(C)C)C(=O)N[C@@H](Cc1ccccc1)C(=O)N[C@@H](CCCCN)C(=O)N[C@@H](CCCCN)C(=O)N1CCC[C@H]1C(=O)N[C@@H](CCCNC(=N)N)C(=O)N[C@H](C(=O)N[C@H](C(=O)N1CCC[C@H]1C(=O)N[C@H](C(=O)N[C@@H](CO)C(=O)N[C@H](C(=O)N1CCC[C@H]1C(=O)N[C@@H](Cc1ccccc1)C(=O)O)[C@@H](C)CC)[C@@H](C)CC)[C@@H](C)CC)C(C)C)C(C)C)C(C)C  MBC (clinical isolate; 20 h, 37 °C): 8 µg/mL (≈ 1.9 µM)
